{"data": "Measurements pooled from the literature", "T1": "itself; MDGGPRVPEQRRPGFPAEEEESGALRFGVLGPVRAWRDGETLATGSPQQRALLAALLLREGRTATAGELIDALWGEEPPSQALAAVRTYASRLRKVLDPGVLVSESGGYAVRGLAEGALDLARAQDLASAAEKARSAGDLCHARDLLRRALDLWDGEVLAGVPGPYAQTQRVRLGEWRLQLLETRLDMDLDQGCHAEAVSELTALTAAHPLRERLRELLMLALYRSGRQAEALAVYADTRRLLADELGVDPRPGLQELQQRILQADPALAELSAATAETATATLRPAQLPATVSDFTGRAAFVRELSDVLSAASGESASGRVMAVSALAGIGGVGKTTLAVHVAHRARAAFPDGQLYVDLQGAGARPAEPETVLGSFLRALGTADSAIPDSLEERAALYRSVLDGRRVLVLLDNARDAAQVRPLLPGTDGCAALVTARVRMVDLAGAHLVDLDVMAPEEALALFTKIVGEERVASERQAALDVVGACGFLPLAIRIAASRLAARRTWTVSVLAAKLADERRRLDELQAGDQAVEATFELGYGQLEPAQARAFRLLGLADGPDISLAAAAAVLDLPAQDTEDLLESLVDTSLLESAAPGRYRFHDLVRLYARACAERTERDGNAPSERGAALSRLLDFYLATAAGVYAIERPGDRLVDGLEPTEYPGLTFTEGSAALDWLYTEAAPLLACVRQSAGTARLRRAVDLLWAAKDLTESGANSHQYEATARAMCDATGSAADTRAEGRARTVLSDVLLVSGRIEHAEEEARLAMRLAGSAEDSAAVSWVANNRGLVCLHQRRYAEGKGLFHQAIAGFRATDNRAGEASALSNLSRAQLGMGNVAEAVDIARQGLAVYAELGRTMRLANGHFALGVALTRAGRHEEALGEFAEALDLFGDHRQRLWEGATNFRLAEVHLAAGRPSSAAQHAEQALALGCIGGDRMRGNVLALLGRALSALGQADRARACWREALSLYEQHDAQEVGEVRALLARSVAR", "T2": "itself; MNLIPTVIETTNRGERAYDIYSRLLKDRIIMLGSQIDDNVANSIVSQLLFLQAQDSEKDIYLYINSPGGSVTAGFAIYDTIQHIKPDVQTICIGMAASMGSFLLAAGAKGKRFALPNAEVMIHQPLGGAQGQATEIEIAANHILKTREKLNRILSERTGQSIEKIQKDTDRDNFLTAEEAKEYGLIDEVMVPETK", "B1": "DPP4 39-766 (Homo sapiens, UniProt P27487); chain SRKTYTLTDYLKNTYRLKLYSLRWISDHEYLYKQENNILVFNAEYGNSSVFLENSTFDEFGHSINDYSISPDGQFILLEYNYVKQWRHSYTASYDIYDLNKRQLITEERIPNNTQWVTWSPVGHKLAYVWNNDIYVKIEPNLPSYRITWTGKEDIIYNGITDWVYEEEVFSAYSALWWSPNGTFLAYAQFNDTEVPLIEYSFYSDESLQYPKTVRVPYPKAGAVNPTVKFFVVNTDSLSSVTNATSIQITAPASMLIGDHYLCDVTWATQERISLQWLRRIQNYSVMDICDYDESSGRWNCLVARQHIEMSTTGWVGRFRPSEPHFTLDGNSFYKIISNEEGYRHICYFQIDKKDCTFITKGTWEVIGIEALTSDYLYYISNEYKGMPGGRNLYKIQLSDYTKVTCLSCELNPERCQYYSVSFSKEAKYYQLRCSGPGLPLYTLHSSVNDKGLRVLEDNSALDKMLQNVQMPSKKLDFIILNETKFWYQMILPPHFDKSKKYPLLLDVYAGPCSQKADTVFRLNWATYLASTENIIVASFDGRGSGYQGDKIMHAINRRLGTFEVEDQIEAARQFSKMGFVDNKRIAIWGWSYGGYVTSMVLGSGSGVFKCGIAVAPVSRWEYYDSVYTERYMGLPTPEDNLDHYRNSTVMSRAENFKQVEYLLIHGTADDNVHFQQSAQISKALVDVGVDFQAMWYTDEDHGIASSTAHQHIYTHMSHFIKQCFSLP", "B2": "clpP 1-195 (Staphylococcus aureus, UniProt Q2G036); chain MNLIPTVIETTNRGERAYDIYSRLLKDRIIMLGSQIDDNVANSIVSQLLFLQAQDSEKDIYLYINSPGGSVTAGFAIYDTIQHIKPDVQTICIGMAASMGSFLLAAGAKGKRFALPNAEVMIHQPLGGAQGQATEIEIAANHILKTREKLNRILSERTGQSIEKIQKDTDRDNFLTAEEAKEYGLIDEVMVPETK", "note": "Protocols differ between the studies behind these lines. Values joined by “and” are separate records of one study, mostly repeats; a detail may differ."}
{"Substance": "MIF (Neospora caninum)", "tested on": "itself", "test": "cross-linking", "measurement": "subunits per oligomer", "value": 3}
{"Substance": "gor L416A/F443A (Pseudomonas sp. JR-1)", "tested on": "itself", "test": "SEC", "conditions": "pH 7.5, 4 °C", "measurement": "subunits per oligomer", "value": 2}
{"Substance": "HBV core protein -10 to 154 C48A/C107A, intramolecular disulfide (hepatitis B virus)", "tested on": "itself", "test": "AUC", "conditions": "oxidized, no DTT", "measurement": "subunits per oligomer", "value": 2}
{"Substance": "Dengue envelope protein soluble ectodomain, no stem/transmembrane (Dengue virus serotype 2)", "tested on": "itself", "test": "liposome sucrose gradient sedimentation", "system": "liposomes", "measurement": "subunits per oligomer", "value": 3}
{"Substance": "GP2 soluble ectodomain (lymphocytic choriomeningitis virus)", "tested on": "itself", "test": "cross-linking", "measurement": "subunits per oligomer", "value": 3}
{"Substance": "CapV apo, wild type (Acinetobacter baumannii)", "tested on": "itself", "test": "cryo-EM", "measurement": "subunits per oligomer", "value": 4}
{"Substance": "porB L3 loop shortened (Neisseria gonorrhoeae)", "tested on": "itself", "test": "cross-linking", "measurement": "subunits per oligomer", "value": 2}
{"Substance": "Ec78 retron ABC ATPase E396Q (Escherichia coli)", "tested on": "itself", "test": "cryo-EM", "measurement": "subunits per oligomer", "value": 4}
{"Substance": "afsR (Streptomyces coelicolor, UniProt P25941)", "tested on": "T1, itself", "test": "cryo-EM", "measurement": "subunits per oligomer", "value": 2}
{"Substance": "UreE-F S26A (Klebsiella aerogenes)", "tested on": "itself", "test": "SEC", "measurement": "subunits per oligomer", "value": 2}
{"Substance": "cmeC (Campylobacter jejuni)", "tested on": "itself", "test": "cross-linking", "measurement": "subunits per oligomer", "value": 3}
{"Substance": "GluA4/TARPγ2 (Rattus norvegicus/Homo sapiens)", "tested on": "itself", "test": "cryo-EM", "measurement": "subunits per oligomer", "value": 4}
{"Substance": "dye-decolorizing peroxidase hexamer", "tested on": "itself", "test": "SEC", "measurement": "subunits per oligomer", "value": 6}
{"Substance": "yjgK fragment (Salmonella enterica serovar Typhimurium)", "tested on": "itself", "test": "SEC", "measurement": "subunits per oligomer", "value": 2}
{"Substance": "gor L416A (Pseudomonas sp. JR-1)", "tested on": "itself", "test": "SEC", "conditions": "pH 7.5, 4 °C", "measurement": "subunits per oligomer", "value": 2}
{"Substance": "B1 (DPP4 39-766)", "tested on": "itself", "test": "SEC-MALS", "measurement": "subunits per oligomer", "value": 2}
{"Substance": "gor F443L (Pseudomonas sp. JR-1)", "tested on": "itself", "test": "SEC", "conditions": "pH 7.5, 4 °C", "measurement": "subunits per oligomer", "value": 2}
{"Substance": "AimR (Bacillus amyloliquefaciens prophage)", "tested on": "itself", "test": "SEC-MALS", "conditions": "without peptide", "measurement": "subunits per oligomer", "value": 2}
{"Substance": "uvrA (Clostridium thermocellum)", "tested on": "itself", "test": "cryo-EM", "measurement": "subunits per oligomer", "value": 2}
{"Substance": "UreE-F Y23A (Klebsiella aerogenes)", "tested on": "itself", "test": "SEC", "measurement": "subunits per oligomer", "value": 2}
{"Substance": "S HBsAg C107R (hepatitis B virus)", "tested on": "itself", "test": "non-reducing SDS-PAGE Western blot", "system": "Huh7, lysate", "measurement": "subunits per oligomer", "value": 2}
{"Substance": "RNA-dependent RNA polymerase fragment (Aspergillus fumigatus)", "tested on": "itself", "test": "cryo-EM structure", "measurement": "subunits per oligomer", "value": 10}
{"Substance": "gor L416E (Pseudomonas sp. JR-1)", "tested on": "itself", "test": "SEC", "conditions": "pH 7.5, 4 °C", "measurement": "subunits per oligomer", "value": 2}
{"Substance": "UreE-F S224A (Klebsiella aerogenes)", "tested on": "itself", "test": "SEC", "measurement": "subunits per oligomer", "value": 2}
{"Substance": "B2 (clpP 1-195)", "tested on": "T2, itself", "test": "crystal structure", "measurement": "subunits per oligomer", "value": 14}
{"Substance": "gor F443E (Pseudomonas sp. JR-1)", "tested on": "itself", "test": "SEC", "conditions": "pH 7.5, 4 °C", "measurement": "subunits per oligomer", "value": 2}
{"Substance": "S HBsAg C147R (hepatitis B virus)", "tested on": "itself", "test": "non-reducing SDS-PAGE Western blot", "system": "Huh7, lysate", "measurement": "subunits per oligomer", "value": 2}
{"Substance": "UreE-F E30A (Klebsiella aerogenes)", "tested on": "itself", "test": "SEC", "measurement": "subunits per oligomer", "value": 2}
{"Substance": "Aca11 fragment (Streptococcus sp)", "tested on": "itself", "test": "SEC-MALS", "measurement": "subunits per oligomer", "value": 2}
{"Substance": "FraB (Salmonella)", "tested on": "itself", "test": "native MS", "measurement": "subunits per oligomer", "value": 2}
{"Substance": "Mvp/Tep1/Parp4 half vault (Rattus norvegicus)", "tested on": "itself", "test": "scanning transmission EM", "measurement": "subunits per oligomer", "value": 2}
{"Substance": "HBV core protein -10 to 149 C48A/C107A/G123A, intramolecular disulfide (hepatitis B virus)", "tested on": "itself", "test": "AUC", "conditions": "reduced", "measurement": "subunits per oligomer", "value": 2}
{"Substance": "UreE-F K165A (Klebsiella aerogenes)", "tested on": "itself", "test": "SEC", "measurement": "subunits per oligomer", "value": 2}
{"Substance": "insulin human", "test": "measured: CAMK1D mRNA", "system": "uninfected mouse, brain", "conditions": "i.p., dose not given", "scale": "relative to: PBS", "measurement": "fold change", "value": 1.3}
{"Substance": "PCNA trimer (Candida albicans)", "tested on": "itself", "test": "SEC", "measurement": "subunits per oligomer", "value": 3}
{"Substance": "UreE-F E215A (Klebsiella aerogenes)", "tested on": "itself", "test": "SEC", "measurement": "subunits per oligomer", "value": 2}
{"Substance": "dye-decolorizing peroxidase (Klebsiella pneumoniae)", "tested on": "itself", "test": "native gel, EMSA, SEC", "measurement": "subunits per oligomer", "value": "6 and 2"}
{"Substance": "UreE-F P19A (Klebsiella aerogenes)", "tested on": "itself", "test": "SEC", "measurement": "subunits per oligomer", "value": 2}
{"Substance": "RL2 fragment (HSV-1)", "tested on": "itself", "test": "crystal structure", "measurement": "subunits per oligomer", "value": 2}
